Experimental data collected from several papers.
Compare with care: the assays were run in different laboratories. Numbers after ± are the reported error. ≈ marks a conversion by molar mass, not a printed value.

SMILES | tested on | assay | test system | conditions | how to read | endpoint | value
CCn1c2ccccc2c2cc(C(=O)c3ccc(C)c4ccccc34)ccc21 | – | tubulin polymerisation, inhibitor, absorbance | – | – | – | IC50 | 1.6 µM
CCCCCCCCC(=O)NCc1ccc(O)c(OC)c1 | mAb 3-LD3 | antibody binding, indirect competitive ELISA | – | together with: coating antigen hapten 2-OVA | – | IC50 | 0.00173 µg/mL
COC(=O)C1=CO[C@@H](OC(C)=O)[C@@H]2C(Cn3cc(CCN4C(=O)c5ccccc5C4=O)nn3)=CC[C@H]12 | SK-N-SH | neuroprotection, MTT | – | 0.075 µM, 24 h, together with: 250 µM H2O2 | – | viability | 53.2 ± 2.5%
COc1ccc(-n2cc(C(=O)N3C[C@]4(OC(=O)c5ccccc5NC(C)=O)CC[C@H](OC)[C@@]56[C@@H]4C[C@@H]([C@@H]35)[C@@]3(O)C[C@H](OC)[C@H]4C[C@@H]6[C@]3(O)[C@H]4OC)nn2)cc1 | – | immunohistochemistry | ICR mouse, LPS-induced lung injury, lung tissue | oral, 5, 10, 15 mg/kg | – | CD68-positive macrophages | decreased
CSCC[C@@H]1NC(=O)[C@H](CCCNC(=N)N)NC(=O)[C@H](Cc2ccc(O)cc2)NC(=O)[C@@H](NC(=O)[C@H](CCCNC(=N)N)NC(=O)[C@H](CCCCN)NC(=O)[C@H](CC(=O)O)NC(=O)[C@H](C)N)CSSC[C@@H](C(=O)N[C@@H](CCCNC(=N)N)C(=O)N[C@@H](Cc2ccc(O)cc2)C(=O)NCC(=O)O)NC(=O)CNC(=O)[C@H](CCCCN)NC(=O)[C@H](CCCCN)NC(=O)[C@@H]2CSSC[C@H](NC1=O)C(=O)N[C@@H](CCC(N)=O)C(=O)N[C@@H](CCCNC(=N)N)C(=O)N[C@@H](Cc1ccc(O)cc1)C(=O)N[C@@H](Cc1c[nH]cn1)C(=O)N[C@@H](CCC(N)=O)C(=O)N[C@@H](CCCNC(=N)N)C(=O)N[C@@H](CCCNC(=N)N)C(=O)N[C@@H](CCC(N)=O)C(=O)N[C@@H](CCCNC(=N)N)C(=O)N[C@@H](CCCNC(=N)N)C(=O)N[C@@H](CCC(N)=O)C(=O)N2 | rat Kv1.6 | conductance-voltage relation, electrophysiology | – | dose not given | baseline: control | V1/2 shift | no effect
CCCCCCCCCCOCc1cn(CC2=CC[C@@H]3C(C(=O)OC)=CO[C@@H](OC(C)=O)[C@H]23)nn1 | SK-N-SH | neuroprotection, MTT | – | 0.15 µM, 24 h, together with: 250 µM H2O2 | – | viability | 58.2 ± 0.3%
C=CCO[C@H]1[C@H](O)[C@@H](N)[C@@H](O[C@H]2[C@H](O[C@@H]3O[C@H](CO)[C@@H](O[C@H]4O[C@@H](CN)[C@@H](O)[C@H](O)[C@H]4N)[C@H]3O)[C@@H](O)[C@H](N)C[C@@H]2N)O[C@@H]1CO | Mycobacterium smegmatis ribosome A1408G | translation, cell-free luciferase synthesis | – | – | – | IC50 | 12.3 ± 1.57 µg/mL
Cc1c(-c2cccc(C3=NCCN3)c2)oc(-c2cccc(C3=NCCN3)c2)c1C | F21T G-quadruplex DNA | FRET melting competition | – | 1 µM, together with: calf thymus DNA, G4:CT 1:1 | baseline: without competitor | remaining ΔTm | 100%
CSC(=NNC(=O)c1ccc([N+](=O)[O-])cc1)SC | Mycobacterium | – | Phlei | – | – | MIC | 100 µg/mL (≈ 350 µM)
CCCO[C@H]1[C@H](O)[C@@H](N)[C@@H](O[C@H]2[C@H](O[C@@H]3O[C@H](CO)[C@@H](O[C@H]4O[C@@H](CN)[C@@H](O)[C@H](O)[C@H]4N)[C@H]3O)[C@@H](O)[C@H](N)C[C@@H]2N)O[C@@H]1CO | Mycobacterium smegmatis ribosome A1408G | translation, cell-free translation | – | – | baseline: A1408G mutant over wild type | IC50 ratio | 80
CC[C@@H]1CN2CC[C@@]3(O)C(=Nc4cccc(OC)c43)[C@@H]2C[C@@H]1/C(=C\OC)C(=O)OC | rabbit anti-mitragynine polyclonal IgG | competitive indirect ELISA | – | concentration not given | baseline: mitragynine | cross-reactivity | 19.3%
C[C@H](NC(=O)[C@H](CCC(N)=O)NC(=O)[C@H](C)NC(=O)[C@H](CCCCN)NC(=O)[C@H](CCC(N)=O)NC(=O)[C@H](C)NC(=O)[C@H](CCCCN)NC(=O)[C@H](CCC(N)=O)NC(=O)[C@H](C)NC(=O)[C@H](CCC(N)=O)NC(=O)[C@H](CCCCN)NC(=O)[C@H](C)NC(=O)[C@H](CCC(N)=O)NC(=O)[C@H](CCCCN)NC(=O)[C@H](C)NC(=O)[C@H](CCC(N)=O)NC(=O)[C@H](C)NC(=O)[C@H](CCCCN)NC(=O)[C@H](CCC(N)=O)NC(=O)[C@H](C)NC(=O)[C@H](CCCCN)NC(=O)[C@H](CO)NC(=O)[C@H](Cc1ccc(O)cc1)NC(=O)CNC(=O)CNC(=O)CN)C(=O)N[C@@H](CCCCN)C(=O)N[C@@H](CCC(N)=O)C(=O)N[C@@H](C)C(=O)N[C@@H](CCCCN)C(=O)N[C@@H](CCC(N)=O)C(=O)O | – | binding | AA amyloid mouse liver homogenate | 1 h, room temperature | – | bound fraction | 52%
NC[C@@H]1O[C@H](O[C@H]2[C@@H](O)[C@H](O[C@@H]3[C@@H](O)[C@H](N)C[C@H](N)[C@H]3O[C@H]3O[C@H](CO)[C@@H](OCCO)[C@H](O)[C@H]3N)O[C@@H]2CO)[C@H](N)[C@@H](O)[C@@H]1O | Mycobacterium smegmatis ribosome A1408G | translation, cell-free luciferase synthesis | – | – | – | IC50 | 1.93 ± 0.38 µg/mL
CC(=O)O[C@@H]1C[C@@H](C)O[C@H]2O[C@@H]3C[C@@H]4CC[C@@H]5[C@H](CC[C@]6(C)[C@@H](C7=CC(=O)OC7)CC[C@]56O)[C@@]4(C)C[C@H]3O[C@]21O | Schistosoma mansoni | – | mouse, chronic infection | oral, 10 mg/kg single dose, females | – | worm number | 7 ± 1.4
COC(=O)C1=CO[C@@H](OC(C)=O)[C@@H]2C(Cn3cc(C4(O)CCCC4)nn3)=CC[C@H]12 | SK-N-SH | neuroprotection, MTT | – | 0.3 µM, 24 h, together with: 250 µM H2O2 | – | viability | 60.2 ± 1.2%
CC(C)C[C@H](NC(=O)[C@H](C)NC(=O)CNC(=O)[C@H](C)NC(=O)CNC(=O)[C@H](Cc1c[nH]cn1)NC(=O)[C@H](CCCCN)NC(=O)[C@H](CC(C)C)NC(=O)[C@H](C)NC(=O)[C@H](CCCCN)NC(=O)[C@H](CCCNC(=N)N)NC(=O)[C@@H](NC(=O)[C@H](CC(C)C)NC(=O)[C@H](CCCCN)NC(=O)[C@H](CCCCN)NC(=O)[C@H](CC(C)C)NC(=O)[C@H](CCCCN)NC(=O)[C@H](CCCCN)NC(=O)[C@H](CCCNC(=N)N)NC(=O)[C@H](Cc1c[nH]c2ccccc12)NC(=O)[C@H](CCCCN)NC(=O)[C@H](CCCNC(=N)N)NC(=O)[C@@H](N)CCCCN)C(C)C)C(=O)N[C@@H](CC(C)C)C(=O)N[C@@H](CO)C(N)=O | – | electronic von Frey | male C57BL/6J mice, ipsilateral paw | intraplantar, 10 µL of 1.2 mM | – | duration of mechanical hypersensitivity | > 60 min
COC(=O)C1=CO[C@@H](OC(C)=O)[C@@H]2C(Cn3cc(CCCN4C(=O)c5ccccc5C4=O)nn3)=CC[C@H]12 | SK-N-SH | neuroprotection, MTT | – | 0.3 µM, 24 h, together with: 250 µM H2O2 | – | viability | 61.6 ± 0.5%
CS(=O)(=O)c1ccc(/C=N/NC(=O)Cn2ccc(=O)c3ccccc32)cc1 | Botrytis cinerea | microbial growth | – | 50 µg/mL | – | inhibition | 18.8%

For quick reference, copied from above:
SMILES | tested on | assay | test system | conditions | how to read | endpoint | value
CC(C)C[C@H](NC(=O)[C@H](C)NC(=O)CNC(=O)[C@H](C)NC(=O)CNC(=O)[C@H](Cc1c[nH]cn1)NC(=O)[C@H](CCCCN)NC(=O)[C@H](CC(C)C)NC(=O)[C@H](C)NC(=O)[C@H](CCCCN)NC(=O)[C@H](CCCNC(=N)N)NC(=O)[C@@H](NC(=O)[C@H](CC(C)C)NC(=O)[C@H](CCCCN)NC(=O)[C@H](CCCCN)NC(=O)[C@H](CC(C)C)NC(=O)[C@H](CCCCN)NC(=O)[C@H](CCCCN)NC(=O)[C@H](CCCNC(=N)N)NC(=O)[C@H](Cc1c[nH]c2ccccc12)NC(=O)[C@H](CCCCN)NC(=O)[C@H](CCCNC(=N)N)NC(=O)[C@@H](N)CCCCN)C(C)C)C(=O)N[C@@H](CC(C)C)C(=O)N[C@@H](CO)C(N)=O | – | electronic von Frey | male C57BL/6J mice, ipsilateral paw | intraplantar, 10 µL of 1.2 mM | – | duration of mechanical hypersensitivity | > 60 min
